Measurements from different studies.
Compare with care: the assays were run in different laboratories. Numbers after ± are the reported error.

| Structure (SMILES) | assay | test system | setting | scale | measurement | value |
| --- | --- | --- | --- | --- | --- | --- |
| CC(C)C[C@H](NC(=O)[C@@H](N)Cc1ccccc1)C(=O)N[C@@H](C)C(=O)N[C@@H](CS)C(=O)N1CCC[C@H]1C(=O)N[C@@H](CCC(=O)O)C(=O)N[C@H](C(=O)N[C@@H](Cc1c[nH]cn1)C(=O)N[C@@H](CS)C(=O)N[C@H](C(=O)NCC(=O)N[C@@H](CO)C(=O)N[C@@H](Cc1c[nH]c2ccccc12)C(=O)N[C@@H](CCCCNC(=O)CN1CCN(CC(=O)O)CCN(CC(=O)O)CCN(CC(=O)O)CC1)C(N)=O)[C@@H](C)O)[C@@H](C)O [gallium-68 labelled] | PET/CT | C57BL/6J mice, B16-F10 tumour, tumour | intravenous, 3.7 MBq, 1 h | – | tumour uptake | 2.07 ± 0.61 %ID/g |
| C[C@@H](O)[C@@H]1NC(=O)[C@@H](NC(=O)CCOCCOCCOCCOCCNC(=O)c2ccc(NN)nc2)CSSC[C@@H](C(=O)O)NC(=O)[C@H](Cc2c[nH]cn2)NC(=O)[C@H](CO)NC(=O)[C@H](Cc2ccccc2)NC(=O)[C@@H]2CCCN2C(=O)[C@H](CO)NC(=O)[C@@H]2CCCN2C1=O [technetium-99m labelled] | – | mouse HCT-116 xenograft, heart | intravenous, 37 MBq, postmortem after imaging | – | tissue uptake | 0.05 ± 0.01 %ID/g |
| CC[C@H](C)[C@@H]([C@@H](CC(=O)N1CCC[C@H]1[C@H](OC)[C@@H](C)C(=O)N[C@H](C)[C@@H](O)c1ccccc1)OC)N(C)C(=O)[C@@H](NC(=O)[C@H](C(C)C)N(C)C(=O)OCc1ccc(NC(=O)[C@H](CCCNC(N)=O)NC(=O)[C@@H](NC(=O)CCCCCN2C(=O)CC(SC[C@H](NC(=O)[C@H](CC(=O)O)NC(=O)[C@H](Cc3ccc(O)cc3)NC(=O)[C@H](Cc3c[nH]c4ccccc34)NC(=O)[C@@H](N)CCCNC(=N)N)C(=O)O)C2=O)C(C)C)cc1)C(C)C (some centres unmarked) | – | C57BL/6 mouse, healthy, spleen | intraperitoneal, 2.5 mg/kg, 6 h | – | concentration | not detected |
| N=C(N)NCCC[C@@H]1NC(=O)[C@H](CCCCNC(=O)CCC(NC(=S)Nc2ccc(CC3CN(CC(=O)O)CCN(CC(=O)O)CCN(CC(=O)O)CCN3CC(=O)O)cc2)C(=O)NCCCC[C@@H]2NC(=O)[C@@H](Cc3ccc(O)cc3)NC(=O)[C@H](CC(=O)O)NC(=O)CNC(=O)[C@H](CCCNC(=N)N)NC2=O)NC(=O)[C@@H](Cc2ccc(O)cc2)NC(=O)[C@H](CC(=O)O)NC(=O)CNC1=O (some centres unmarked) [scandium-44 labelled] | PET imaging ROI | female athymic nude mice, U-87 MG xenograft, liver | intravenous, 0.5 h | – | tissue uptake | 1.73 ± 0.47 %ID/g |
| Cc1ccnc(-c2cc(C(=O)NCCCCCC(=O)N[C@@H](CCCNC(=N)N)C(=O)N[C@@H](CCCNC(=N)N)C(=O)N[C@@H](Cc3c[nH]c4ccccc34)C(=O)N[C@@H](Cc3c[nH]c4ccccc34)C(=O)N[C@@H](CCCNC(=N)N)C(=O)N[C@@H](Cc3c[nH]c4ccccc34)C(=O)N[C@@H](Cc3c[nH]c4ccccc34)C(=O)N[C@@H](CCCNC(=N)N)C(=O)N[C@@H](CCCNC(=N)N)C(N)=O)ccn2)c1 (stereo in doubt) | – | DMSO, PBS, supplemented RPMI | 25 µM, 7 d, 37 °C | – | stability in solution | stable |
| Cc1cc(O)cc(C)c1C[C@H](N)C(=O)N[C@H](CCCNC(=N)N)C(=O)N[C@@H](Cc1ccccc1)C(=O)N[C@@H](CCCCNC(=O)CN1CCN(CC(=O)O)CCN(CC(=O)O)CCN(CC(=O)O)CC1)C(N)=O [indium-111 labelled] | – | – | pH 7.4 | – | logD | -4.26 ± 0.15 |
| CCCCCCCCCCCCCCC(=O)N[C@@H](CCCCNC(=O)CN1CCN(CC(=O)O)CCN(CC(=O)O)CCN(CC(=O)O)CC1)C(=O)N[C@@H](CCC(=O)NCCCC[C@@H]1NC(=O)[C@@H](Cc2ccccc2)NC(=O)[C@H](CC(=O)O)NC(=O)CNC(=O)[C@H](CCCNC(=N)N)NC1=O)C(=O)NCCCC[C@@H]1NC(=O)[C@@H](Cc2ccccc2)NC(=O)[C@H](CC(=O)O)NC(=O)CNC(=O)[C@H](CCCNC(=N)N)NC1=O [indium-111 labelled] | – | female BALB/c nude mice, U-87 MG xenograft, tumour | intravenous, 4 h | – | tumour uptake | 8.59 ± 0.24 %ID/g |
| CC(C)C[C@@H]1NC(=O)[C@H](CC(=O)O)NC(=O)CNC(=O)[C@H](CCCNC(=N)N)NC(=O)[C@H](Cc2ccccc2)NC(=O)[C@H](CCCCNC(=O)CCc2cn(CCCNC(=O)CCC(C(=O)O)N3CCN(CC(=O)O)CCN(CC(=O)O)CCN(CC(=O)O)CC3)nn2)N(C)C(=O)[C@H]2CCCN2C(=O)[C@H](Cc2ccccc2)NC(=O)[C@H](C)NC1=O (some centres unmarked) | – | female CB17 SCID mice, tumour and spleen | intravenous, dose not given, 90 min, 177Lu-labelled | relative to: tumour over spleen | tissue-to-tissue ratio | 4.6 ± 1.1 |
| CCCCCCCCCCCCCCCCCCCCCCCCCC(=O)O[C@H](CCCCCCCCCCCCCC)[C@@H](O)[C@H](CO[C@H]1O[C@H](CO)[C@H](O)[C@H](O)[C@H]1O)NC(=O)OCc1ccc(NC(=O)[C@H](CCCNC(N)=O)NC(=O)[C@@H](NC(=O)CCCCCn2cc(CCC(=O)N[C@@H](Cc3ccccc3)C(=O)N[C@@H](Cc3ccccc3)C(=O)N[C@@H](CCCNC(=N)N)C(=O)N[C@@H](CCCCN)C(=O)N[C@@H](CO)C(=O)N[C@H](C(=O)N[C@H](C(=O)N[C@@H](CC(N)=O)C(=O)N[C@@H](Cc3ccccc3)C(=O)N[C@@H](CCC(=O)O)C(=O)N[C@@H](CCCCN)C(=O)N[C@@H](CC(C)C)C(=O)O)[C@@H](C)CC)[C@@H](C)CC)nn2)C(C)C)cc1 | HPLC-ESI-MS/MS | aqueous ammonium acetate | 10 µg/mL, eight days, pH 9.0, 20 °C | – | α-GalCer released | < 0.05% |
| CC(C)C[C@@H]1NC(=O)[C@H](CC(=O)O)NC(=O)CNC(=O)[C@H](CCCNC(=N)N)NC(=O)[C@H](Cc2ccccc2)NC(=O)[C@H](CCCCNC(=O)CCc2cn(CCCNC(=O)CN3CCN(CC(=O)O)CCN(CC(=O)O)CCN(CC(=O)O)CC3)nn2)N(C)C(=O)[C@H]2CCCN2C(=O)[C@H](Cc2ccccc2)NC(=O)[C@H](C)NC1=O | – | female CB17 SCID mice, tumour and spleen | intravenous, dose not given, 90 min, 177Lu-labelled | relative to: tumour over spleen | tissue-to-tissue ratio | 5.3 ± 5.3 |
| CC(=O)N[C@@H](CC(C)C)C(=O)N[C@H](C(=O)N[C@@H](Cc1ccccc1)C(=O)N[C@]1(C)CCCCCC/C=C/CCC[C@@](C)(C(=O)N[C@@H](C)C(=O)N[C@@H](C)C(=O)N[C@@H](C)C(=O)N[C@@H](C)C(=O)N[C@@H](C)C(=O)N[C@H](C)C(N)=O)NC(=O)[C@H](CC(C)C)NC(=O)[C@H](CCCCNC(=O)CCNC(=O)C[C@@H]2N=C(c3ccc(Cl)cc3)c3c(sc(C)c3C)-n3c(C)nnc32)NC(=O)[C@H](C)NC(=O)[C@H](Cc2c[nH]c3ccccc23)NC(=O)[C@H](Cc2ccc(O)cc2)NC(=O)[C@H](C)NC1=O)[C@@H](C)O | – | male C57BL/6 mouse, plasma | intravenous, 10 mg/kg | – | half-life | 4.71 h |

Repeated from above:
| Structure (SMILES) | assay | test system | setting | scale | measurement | value |
| --- | --- | --- | --- | --- | --- | --- |
| CC(C)C[C@@H]1NC(=O)[C@H](CC(=O)O)NC(=O)CNC(=O)[C@H](CCCNC(=N)N)NC(=O)[C@H](Cc2ccccc2)NC(=O)[C@H](CCCCNC(=O)CCc2cn(CCCNC(=O)CN3CCN(CC(=O)O)CCN(CC(=O)O)CCN(CC(=O)O)CC3)nn2)N(C)C(=O)[C@H]2CCCN2C(=O)[C@H](Cc2ccccc2)NC(=O)[C@H](C)NC1=O | – | female CB17 SCID mice, tumour and spleen | intravenous, dose not given, 90 min, 177Lu-labelled | relative to: tumour over spleen | tissue-to-tissue ratio | 5.3 ± 5.3 |
